{"data": "Measurements from different studies", "note": "Compare with care: the assays were run in different laboratories. Several values in a cell are separate wells, animals, samples, runs or records. ± gives the spread as reported."}
{"SMILES": "O=C(C[Se]C(=O)C12CC3CC(CC(C3)C1)C2)Nc1cccc(C(F)(F)F)c1", "cell line": "NCI60 renal subpanel", "assay": "cytotoxicity, inhibitor", "setting": "five-dose", "quantity": "CC50", "value": "31.6 µM"}
{"SMILES": "[Cl-].[Cl-].[Ru+2].c1ccc(-c2ccccn2)nc1.c1ccc(-c2ccccn2)nc1.c1ccc2cc3nc4c5cccnc5c5ncccc5c4nc3cc2c1", "cell line": "SK-MEL-28", "assay": "cell viability", "setting": "dark, 1% O2", "quantity": "EC50", "value": "123 ± 4 µM"}
{"SMILES": "COc1ccccc1-c1ccncc1C(=O)Nc1nnc(OCc2ccc(Cl)cc2)s1", "cell line": "DLD-1 parental", "setting": "8 µM", "how to read": "reference: untreated", "quantity": "colony survival", "value": "98.2% and 97% and 101%"}
{"SMILES": "Cc1[nH][n+]([Pt-2]([Cl])([n+]2[nH]c(C)c(CSC3CCCCC3)c2C)[n+]2[nH]c(C)c(CSC3CCCCC3)c2C)c(C)c1CSC1CCCCC1.[Cl-]", "cell line": "Jurkat", "assay": "cytotoxicity", "how to read": "reference: IC50 HEK293 over IC50 Jurkat", "quantity": "selectivity index", "value": 12.5}
{"SMILES": "O=C(C[Se]C(=O)c1ccco1)Nc1cccc(C(F)(F)F)c1", "cell line": "NCI60 renal subpanel", "assay": "cell growth", "setting": "10 µM, 48 h, one-dose", "quantity": "mean growth percent", "value": "-50.5%"}
{"SMILES": "CC(C)C[C@H](NC(=O)[C@H](CC(=O)O)NC(=O)CNC(=O)[C@@H](N)CCCNC(=N)N)C(=O)N[C@@H](C)C(=O)N[C@H](C(=O)N[C@@H](CC(C)C)C(=O)N[C@@H](CCCNC(=N)N)C(=O)N[C@@H](CCC(N)=O)C(=O)N[C@@H](CC(C)C)C(=O)N[C@@H](C)C(=O)N[C@@H](CCC(N)=O)C(=O)N[C@@H](CCC(=O)O)C(=O)N[C@@H](CC(=O)O)C(=O)NCC(=O)N[C@H](C(=O)N[C@H](C(=O)NCC(=O)N[C@H](C(=O)N[C@@H](CCCNC(=N)N)C(=O)NCCOCCOCCOCCOCCOCCOCCOCCOCCOCCOCCOCCOCCC(=O)N[C@@H](CS)C(N)=O)C(C)C)C(C)C)C(C)C)[C@@H](C)O", "cell line": "H1666 lung adenocarcinoma", "assay": "cell binding, phage binding, measured: output/input phage", "setting": "10 min, 37 °C", "how to read": "reference: control phage", "quantity": "selectivity ratio", "value": "34 ± 10"}
{"SMILES": "N[C@H](C(=O)N1CCCC1)C1CCN(c2nccc3c(-c4ncc(Cl)cc4Cl)cccc23)CC1", "cell line": "human neutrophils", "assay": "protein citrullination, inhibitor, flow cytometry, measured: citrullinated proteins", "setting": "1 nM, added: ionomycin", "quantity": "inhibition", "value": "9.22% and 6.89% and 2.99% and 22.3%"}
{"SMILES": "CC(C)CC(O)(CC(C)C)c1cn(C(=O)N2CCCC2)nn1", "cell line": "mouse T-cells", "assay": "SILAC proteomics, measured: Arhgef2", "setting": "1 nM, 6 h, single peptides, unit not given", "how to read": "reference: DMSO", "quantity": "protein level", "value": "1.03 and 1.13"}
{"SMILES": "CC(C)Cc1ccc(C(C)C(=O)[Se]CC(=O)Nc2cccc(C(F)(F)F)c2)cc1 (centres unmarked)", "cell line": "NCI60 NSCLC subpanel", "assay": "NCI60 five-dose screen", "quantity": "CC50", "value": "7.37 µM"}
{"SMILES": "CNC(=S)NCCCC[C@H](NC(=O)CCc1ccccc1)C(=O)N[C@@H](CCCNC(=N)N)C(=O)N[C@@H](CC1CCCCC1)C(=O)N[C@H](CCCCN)C(=O)N[C@@H](CC1CCCCC1)C(N)=O", "cell line": "Jurkat", "assay": "cell growth or viability, MTT", "setting": "72 h", "quantity": "EC50", "value": "51.2 µM"}
{"SMILES": "Cc1cc(Oc2nc(N3CC[C@@H](c4ccncc4)C3)ncc2F)[nH]n1", "cell line": "CLS-439", "assay": "cell proliferation", "quantity": "IC50", "value": "64.6 µM"}
{"SMILES": "O=C(C[Se]C(=O)c1ccccc1Nc1ccccc1)Nc1cccc(C(F)(F)F)c1", "cell line": "NCI60 prostate subpanel (PC-3, DU-145)", "assay": "cytotoxicity, inhibitor", "setting": "five-dose", "quantity": "CC50", "value": "6.87 µM"}
{"SMILES": "CC(=O)NCSC[C@H](NC(=O)[C@@H]1CCCN1C(=O)[C@H](C)NC(=O)[C@@H](NC(=O)CNC(=O)[C@@H](NC(=O)[C@H](Cc1c[nH]c2ccccc12)NC(=O)[C@H](C)NC(=O)CNC(=O)[C@H](CO)NC(=O)[C@H](C)NC(=O)[C@@H]1CCCN1C(=O)[C@H](Cc1c[nH]c2ccccc12)NC(=O)[C@H](C)NC(=O)[C@H](C)NC(=O)[C@@H](N)Cc1ccc(O)cc1)[C@@H](C)O)[C@@H](C)O)C(=O)N[C@@H](CO)C(=O)N[C@@H](C)C(=O)NCC(=O)N[C@H](C(=O)NCCOCCOCCOCCOCCOCCOCCOCCOCCOCCOCCOCCOCCC(=O)N[C@@H](CS)C(N)=O)[C@@H](C)O", "cell line": "H1650 lung adenocarcinoma", "assay": "cell binding, phage binding, measured: output/input phage", "setting": "10 min, 37 °C", "how to read": "reference: control phage", "quantity": "selectivity ratio", "value": "2 ± 0.3"}
{"SMILES": "O=C(C[Se]C(=O)c1cccs1)Nc1cccc(C(F)(F)F)c1", "cell line": "NCI60 prostate subpanel (PC-3, DU-145)", "assay": "cytotoxicity, inhibitor", "setting": "five-dose", "quantity": "CC50", "value": "6.81 µM"}
{"SMILES": "CC(C)[C@H](NC(=O)[C@H](CCCNC(=N)N)NC(=O)[C@@H]1CCCN1C(=O)[C@@H](NC(=O)[C@H](C)NC(=O)[C@H](Cc1ccc(O)cc1)NC(=O)[C@H](CCC(N)=O)NC(=O)[C@H](CCCCN)NC(=O)[C@H](CCCNC(=N)N)NC(=O)[C@@H]1CCCN1C(=O)[C@H](CCC(=O)O)NC(=O)[C@@H](NC(=O)[C@H](C)N)[C@@H](C)O)[C@@H](C)O)C(=O)N[C@@H](Cc1ccccc1)C(=O)N[C@@H](Cc1c[nH]c2ccccc12)C(=O)N[C@H](C(=O)N[C@@H](CC(=O)O)C(=O)N[C@@H](C)C(=O)N1CCC[C@H]1C(=O)NCC(=O)NCCOCCOCCOCCOCCOCCOCCOCCOCCOCCOCCOCCOCCC(=O)N[C@@H](CS)C(N)=O)[C@@H](C)O", "cell line": "H322", "assay": "phage binding", "setting": "10 min, 37 °C", "how to read": "reference: control phage", "quantity": "selectivity ratio", "value": "3.8 ± 1.1"}
{"SMILES": "O=C(C[Se]C(=O)c1ccc2ccccc2n1)Nc1cccc(C(F)(F)F)c1", "cell line": "NCI60 prostate subpanel (PC-3, DU-145)", "assay": "cytotoxicity, inhibitor", "setting": "five-dose", "quantity": "CC50", "value": "6.89 µM"}
{"SMILES": "Cc1cccc(-c2cccc(C)n2)n1.Cc1cccc(-c2cccc(C)n2)n1.F[P-](F)(F)(F)(F)F.F[P-](F)(F)(F)(F)F.[Ru+2].c1ccc2c(-c3nc4c5cccnc5c5ncccc5c4[nH]3)cccc2c1", "cell line": "SK-MEL-28", "setting": "normoxia, added: blue light 453 nm, 100 J/cm2", "how to read": "reference: dark over light EC50", "quantity": "phototoxicity index", "value": 22}
{"SMILES": "NC(=O)N/N=C/c1ccc(OCc2ccccc2)cc1", "cell line": "IMR-32", "setting": "300 µg/mL, 24 h", "how to read": "higher = more activity", "quantity": "catalase activity (OD450)", "value": "0.268 a.u."}
{"SMILES": "O=C(C[Se]C(=O)c1ccccc1)Nc1cccc(C(F)(F)F)c1", "cell line": "NCI60 leukemia subpanel", "assay": "cell growth", "setting": "10 µM, 48 h, one-dose", "quantity": "mean growth percent", "value": "-64.5%"}
{"SMILES": "CSCC[C@H](NC(=O)[C@@H](NC(=O)[C@H](CCC(N)=O)NC(=O)[C@H](CO)NC(=O)[C@@H](N)C(C)C)[C@@H](C)O)C(=O)N[C@@H](CCCNC(=N)N)C(=O)N[C@@H](CCC(N)=O)C(=O)N[C@H](C(=O)N[C@@H](C)C(=O)N[C@H](C(=O)N1CCC[C@H]1C(=O)N[C@@H](CC(C)C)C(=O)N[C@@H](CC(C)C)C(=O)N[C@@H](Cc1c[nH]c2ccccc12)C(=O)N[C@@H](Cc1ccccc1)C(=O)N[C@@H](Cc1c[nH]c2ccccc12)C(=O)N[C@H](C(=O)NCC(=O)N[C@@H](CO)C(=O)N[C@@H](CC(C)C)C(=O)NCCOCCOCCOCCOCCOCCOCCOCCOCCOCCOCCOCCOCCC(=O)N[C@@H](CS)C(N)=O)[C@@H](C)O)C(C)C)[C@@H](C)O", "cell line": "PANC-1 pancreatic cancer", "assay": "cell binding, phage binding, measured: output/input phage", "setting": "10 min, 37 °C", "how to read": "reference: control phage", "quantity": "selectivity ratio", "value": "19 ± 6.6"}
{"SMILES": "O=C(O)c1ccc(-c2nc(-c3ccccc3Cl)c3sccn23)cc1", "cell line": "K562", "assay": "erythroid differentiation, flow cytometry", "setting": "0.01 mM, 72 h", "quantity": "CD235a-positive cells", "value": "66.2% and 81.2%"}
{"SMILES": "CSCC[C@H](NC(=O)[C@H](CC(C)C)NC(=O)[C@H](CCC(N)=O)NC(=O)[C@H](C)NC(=O)[C@H](Cc1c[nH]c2ccccc12)NC(=O)[C@H](Cc1ccc(O)cc1)NC(=O)[C@H](CCC(=O)O)NC(=O)[C@H](CC(C)C)NC(=O)[C@H](Cc1ccccc1)NC(=O)[C@@H](NC(=O)[C@H](CC(C)C)NC(=O)[C@H](CCCCN)NC(C)=O)[C@@H](C)O)C(=O)N[C@@H](CCC(N)=O)C(=O)N[C@@H](CCCCN)C(=O)NCCCCCC(=O)N[C@@H](CCCCN)C(=O)N[C@@H](CC(C)C)C(=O)N[C@H](C(=O)N[C@@H](Cc1ccccc1)C(=O)N[C@@H](CC(C)C)C(=O)N[C@@]1(C)CCCC=CCCC[C@@](C)(C(=O)N[C@@H](CC(C)C)C(=O)N[C@@H](CCSC)C(=O)N[C@@H](CCC(N)=O)C(=O)N[C@@H](CCCCN)C(N)=O)NC(=O)[C@H](C)NC(=O)[C@H](Cc2c[nH]c3ccccc23)NC(=O)[C@H](Cc2ccc(O)cc2)NC1=O)[C@@H](C)O", "cell line": "human tumour cells", "assay": "cell growth, CCK-8", "setting": "16 µM", "quantity": "inhibition", "value": "inhibited"}
{"SMILES": "C=CCN1C(=O)C(CC=C)(C(=O)OCC)Oc2cc(F)ccc21 (centres unmarked)", "cell line": "HEK293T", "assay": "cytotoxicity, CCK-8", "setting": "12.5 µM, 72 h", "quantity": "inhibition", "value": "0.43 ± 0.13%"}
{"SMILES": "COc1ccc2c(c1)c(CC(=O)[Se]CC(=O)Nc1cccc(C(F)(F)F)c1)c(C)n2C(=O)c1ccc(Cl)cc1", "cell line": "NCI60 NSCLC subpanel", "assay": "NCI60 five-dose screen", "quantity": "CC50", "value": "7.09 µM"}
{"SMILES": "CCOC(=O)C1(Cc2ccccc2)Oc2cc(F)ccc2N(Cc2ccccc2)C1=O (centres unmarked)", "cell line": "HEK293T", "assay": "cytotoxicity, CCK-8", "setting": "1.56 µM, 72 h", "quantity": "inhibition", "value": "0.02 ± 0.34%"}
{"SMILES": "CC(C)(C)C(=O)OCOP(=O)(OCOC(=O)C(C)(C)C)C1CCCN(O)C1=O (centres unmarked)", "cell line": "UACC-62", "quantity": "log TGI", "value": "-5.68 log M"}
{"note": "Some of these lines once more:"}
{"SMILES": "O=C(C[Se]C(=O)c1ccco1)Nc1cccc(C(F)(F)F)c1", "cell line": "NCI60 renal subpanel", "assay": "cell growth", "setting": "10 µM, 48 h, one-dose", "quantity": "mean growth percent", "value": "-50.5%"}
{"SMILES": "CC(C)C[C@H](NC(=O)[C@H](CC(=O)O)NC(=O)CNC(=O)[C@@H](N)CCCNC(=N)N)C(=O)N[C@@H](C)C(=O)N[C@H](C(=O)N[C@@H](CC(C)C)C(=O)N[C@@H](CCCNC(=N)N)C(=O)N[C@@H](CCC(N)=O)C(=O)N[C@@H](CC(C)C)C(=O)N[C@@H](C)C(=O)N[C@@H](CCC(N)=O)C(=O)N[C@@H](CCC(=O)O)C(=O)N[C@@H](CC(=O)O)C(=O)NCC(=O)N[C@H](C(=O)N[C@H](C(=O)NCC(=O)N[C@H](C(=O)N[C@@H](CCCNC(=N)N)C(=O)NCCOCCOCCOCCOCCOCCOCCOCCOCCOCCOCCOCCOCCC(=O)N[C@@H](CS)C(N)=O)C(C)C)C(C)C)C(C)C)[C@@H](C)O", "cell line": "H1666 lung adenocarcinoma", "assay": "cell binding, phage binding, measured: output/input phage", "setting": "10 min, 37 °C", "how to read": "reference: control phage", "quantity": "selectivity ratio", "value": "34 ± 10"}
{"SMILES": "N[C@H](C(=O)N1CCCC1)C1CCN(c2nccc3c(-c4ncc(Cl)cc4Cl)cccc23)CC1", "cell line": "human neutrophils", "assay": "protein citrullination, inhibitor, flow cytometry, measured: citrullinated proteins", "setting": "1 nM, added: ionomycin", "quantity": "inhibition", "value": "9.22% and 6.89% and 2.99% and 22.3%"}
{"SMILES": "CC(C)CC(O)(CC(C)C)c1cn(C(=O)N2CCCC2)nn1", "cell line": "mouse T-cells", "assay": "SILAC proteomics, measured: Arhgef2", "setting": "1 nM, 6 h, single peptides, unit not given", "how to read": "reference: DMSO", "quantity": "protein level", "value": "1.03 and 1.13"}
